# Results gathered from unrelated publications.
# A part holds a random share of what one study measured.

# Block 1
# Target: TAR DNA-binding protein 43, full length, His tag (TARDBP, Homo sapiens, UniProt Q13148, residues 1-414)
# Method: RNA Bind-n-Seq
# Molecule type: RNA
# Sample: in vitro
# Concentration: 20 nM
# Setting: 6-mer, flanks averaged, single round
# With: 150 mM KCl
# Relative to: input library
# Reading: higher = stronger binding
Sequence,6-mer enrichment (R)
ACCGCG,0.939
CUGACG,0.858
CGCGUA,0.807
UCAAAG,0.706
AGAUGG,1.48
GACUAG,0.971
GUCUUA,0.604
AGAUCC,0.618
GUCUAG,0.857
GAUGAU,0.84
AUUCAG,0.631
CUAAAU,0.615
UAUGAU,0.694
AUAUUC,0.562
GAUUCC,0.592
GUAUGG,1.79
AUCAAG,0.671
GGUAGU,1.42
UAUAAC,0.667
GAAUAA,0.888
GAGGGG,8.71
GAUGUA,0.88

# Block 2
# Target: Histone acetyltransferase KAT6A, both winged helices, GST fusion (KAT6A, Homo sapiens, UniProt Q92794, residues 1-181)
# Method: protein binding microarray
# Molecule type: double-stranded DNA, one strand shown
# Sample: in vitro
# Concentration: not given
# Setting: 8-mer, flanks averaged, mean of 2 arrays, mostly near background
# Relative to: not given
# Reading: higher = stronger binding
# Construct (chain): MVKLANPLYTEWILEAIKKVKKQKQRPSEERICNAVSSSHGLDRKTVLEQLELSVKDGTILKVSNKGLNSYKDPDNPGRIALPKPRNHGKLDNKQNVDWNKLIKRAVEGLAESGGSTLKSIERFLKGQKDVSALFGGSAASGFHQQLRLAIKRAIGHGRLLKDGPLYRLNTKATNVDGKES
Sequence,E-score
ATATTTAA,-0.0525
CTTCGGCC,0.0433
ATCCAGCC,-0.144
ATTGACCC,-0.0169
GGGTAATA,-0.0779
CTAATGCA,-0.0203
CGCTTCAA,0.173
GGGAGAAA,-0.166
ACCCAGGG,-0.195
ACAGTGTC,-0.105
CTATTAGA,-0.0617
TAAACAGA,-0.139
AACCGCCT,0.127
GGAGCAAC,-0.0063
CATGGTAA,-0.00541
AAAGTGTC,-0.0632
CCAGACTC,-0.178
AGTTGGAT,-0.179
CCAATAAA,-0.00173
CACGAATG,-0.209
ATATACGA,-0.129
CCATCTCG,-0.102
ATACGTCC,0.0221
CAGAGCAC,-0.0763
GGATGAGA,-0.125

# Block 3
# Target: Fragile X messenger ribonucleoprotein 1, C-terminal low-complexity region (Fmr1, Mus musculus, UniProt P35922)
# Method: RNA Bind-n-Seq
# Molecule type: RNA
# Sample: in vitro
# Concentration: 200 nM
# Setting: whole 134-nt RNA, ends assumed
# With: 150 mM KCl
# Relative to: input library
# Reading: higher = stronger binding
# Constant ends, left off below: GGGAGUUCUACAGUCCGACGAUC … UGGAAUUCUCGGGUGUCAAGG
Sequence,log2 enrichment
UCAAGUCCUGUGCUACACAUCGUAUGUACCGAAUCGGAGGUUUUUUUGGUUUGGAAAGUAUUAUGUUACGCCGUUCGGAUCUGCACUUCC,-0.913
CGCAGACAACACGCACCCACACAGACACAGAGGGAAGGGGUUGGGAUGGGGACAGGGUGCACAGCAGGGCGGGGUAGGACCCCAGCCCCU,1.48
AGUCCUGUGCUACACAUCGUAUGUACCGAAUCGGGGCCCCGGCCCCGGGGCCCCGGGAAAGUAUUAUGUUACGCCGUUCGGAUCUGCACU,-0.249
UCAAGUCCUGUGCUACACAUCGUAUGUACCGAAUCGGGUGGGAGGGUUUUUGGGAAAGUAUUAUGUUACGCCGUUCGGAUCUGCACUUCC,1.07
GCAGGAAGUAAAAACAAAUGGAAAUGCUUCGGAUAGUGGCAGGGGUGGGGGUUGCGAAGGAAAGGGUGGGAUGGGAGUGGGUAAAGAGUU,0.24

# Block 4
# Target: Interferon regulatory factor 5, full length, phosphomimetic (IRF5, Homo sapiens, UniProt Q13568-2, residues 1-514, K96S/S451D/S453D/S456D/S462D)
# Method: protein-binding microarray
# Molecule type: double-stranded DNA, one strand shown
# Sample: in vitro
# Concentration: 250 nM
# Setting: 60-bp whole probe
# With: salmon DNA 0.4 mg/ml
# Relative to: random background probes
# Reading: higher = stronger binding
# Constant ends, left off below: GCCTAGCAC … GTCTTGATTCGCTTGACGCTGCTG
Sequence,log fluorescence
TTAAGTATCGGGTTTCGGTTAGTGCTA,9.4 z-score
GACGGCCTGCTTATCCTGACGTGCTAG,-0.625 z-score
TTAGTTCTCGGTATCGGTTAGTGCTAG,5.27 z-score
TCAGCTTTGTGCCTAGCACTGTGCTAG,-0.0163 z-score
GAAGGACTGGGTCTCGGGACGTGCTAG,-0.691 z-score
TTAGGATTGCTTTTCCTTTAGTGCTAG,0.559 z-score
TTAGGACTGCTACTGATTTAGTGCTAG,-0.203 z-score
GACGGTCTTGGTATCGGGACGTGCTAG,1.1 z-score
GACGGTATCCTTTGCCTGACGTGCTAG,-0.0823 z-score
TTAGACCTCAGACTGGATTAGTGCTAG,-0.445 z-score
TTAGGTTTCAGTCTCGATTAGTGCTAG,4.67 z-score
CCAATTCTTTTTATGCTTTCGTGCTAG,1.7 z-score
TGAAGTTTTAATAACACAGAGTGCTAG,0.174 z-score
TCACTTCTCCTCTAGGTTACTGTGCTA,0.538 z-score
TTAGATATCAGTATTGATTAGTGCTAG,1.64 z-score
CTGTACTTGAATTCTGCAAAGTGCTAG,-0.135 z-score
GACGGTTTCGGGTATCGGGGCGTGCTA,7.82 z-score
TTAAGTTTCGACTTTCGGTTAGTGCTA,11.3 z-score
TTTGGTTTCCTTTTCCTTTAGTGCTAG,2.7 z-score

# Repeated from above (block 1):
Sequence,6-mer enrichment (R)
GUCUUA,0.604
AGAUCC,0.618
GUCUAG,0.857
GAUGAU,0.84
